Experimental data from different studies.
Protocols differ between the studies behind these lines. Several values in a cell are separate wells, animals, samples, runs or records. ± marks the error that the study gave.
Cell line: Huh7.5

The viability of `Cc1ccc2nc(-c3ccc4nc(-c5ccc(NC(=O)c6ccc7ccccc7c6)cc5)sc4c3)sc2c1S(=O)(=O)O` is reported as 87 ± 4% (10 µM).
`CC(=O)OC[C@H]1O[C@@H](Sc2sc(C(=O)c3ccc(Cl)cc3)c(N)c2-c2nc3ccccc3s2)[C@H](OC(C)=O)[C@@H](OC(C)=O)[C@H]1OC(C)=O` — result for “maximum non-toxic concentration”: 90 µg/mL (cytotoxicity; 72 h).
`N#C/C(=C\c1ccc(O)c(O)c1)C(=O)c1ccc(O)c(O)c1` gave a CC50 of 60 µM (cell growth or viability, ATP luminescence; 72 h).
`Nc1c(C(=O)c2ccc(Cl)cc2)sc(S)c1-c1nc2ccccc2s1`: “maximum non-toxic concentration” 80 µg/mL and 70 µg/mL (cytotoxicity; 72 h).
Under “maximum non-toxic concentration”, `O=c1c(-c2nc3ccccc3s2)cc2c(n1NS(=O)(=O)c1ccccc1)CCCCCC2` is recorded as 140 µg/mL (trypan blue; 72 h).
For `Cc1ccc2nc(-c3ccc4nc(-c5ccc6nc(-c7ccc8nc(-c9ccc(N)cc9)sc8c7)sc6c5)sc4c3)sc2c1S(=O)(=O)O`, cytotoxicity read “not toxic” (100 µM).
`CCOC(=O)c1cc(-c2nc3ccccc3s2)c(=O)n(NS(=O)(=O)c2ccc(Cl)cc2)c1N`: “maximum non-toxic concentration” 130 µg/mL (trypan blue; 72 h).
Under “maximum non-toxic concentration”, `CC(=O)O[C@@H]1[C@@H](OC(C)=O)[C@H](Sc2sc(C(=O)c3ccc(Cl)cc3)c(N)c2-c2nc3ccccc3s2)OC[C@H]1OC(C)=O` is recorded as 80 µg/mL (cytotoxicity; 72 h).
`Cc1ccc(S(=O)(=O)Nn2c3c(cc(-c4nc5ccccc5s4)c2=O)CCCCCC3)cc1` — result for “maximum non-toxic concentration”: 130 µg/mL (trypan blue; 72 h).
`O=C(Nc1cccc(C(=O)Nc2ccc(S(=O)(=O)O)c3cc(S(=O)(=O)O)cc(S(=O)(=O)O)c23)c1)Nc1cccc(C(=O)Nc2ccc(S(=O)(=O)O)c3cc(S(=O)(=O)O)cc(S(=O)(=O)O)c23)c1` gave a CC50 of > 25 µM (cell growth or viability, ATP luminescence; 72 h).

For quick reference, copied from above:
For `Cc1ccc2nc(-c3ccc4nc(-c5ccc6nc(-c7ccc8nc(-c9ccc(N)cc9)sc8c7)sc6c5)sc4c3)sc2c1S(=O)(=O)O`, cytotoxicity read “not toxic” (100 µM).
